Results gathered from unrelated publications.
Lines come from different studies, so protocols differ. “And” joins repeats or separate records; there may be more than shown. In brackets after ≈: the same amount, converted by molar mass.

Structure (SMILES)	organism	test	test system	setting	scale	quantity	result
Cc1cc(NC(=O)c2cccc(S(F)(F)(F)(F)F)c2)cc(-n2ccn3nc(-c4cccnc4)cc23)c1	murine hepatitis virus	viral replication, nanoluciferase reporter	DBT	1 µM, 10 h	reference: DMSO vehicle	inhibition	46%
CS(=O)(=O)CCCn1c(Cn2c(=O)n(CC(F)(F)F)c3ccncc32)cc2cc(Cl)ccc21	respiratory syncytial virus	RT-qPCR	hospitalized infants 1-24 months, nasal swab	oral, 8 mg/kg daily, day 3, cohort 6-24 months	reference: placebo	LS mean difference vs placebo	-1.23 log10 copies/mL
C[C@H](NC(=O)[C@H](CCCNC(=N)N)NC(=O)[C@H](Cc1c[nH]c2ccccc12)NC(=O)[C@H](CCCNC(=N)N)NC(=O)[C@H](Cc1c[nH]c2ccccc12)NC(=O)[C@H](Cc1c[nH]c2ccccc12)NC(=O)[C@H](Cc1c[nH]c2ccccc12)NC(=O)[C@H](CCCNC(=N)N)NC(=O)[C@H](Cc1c[nH]c2ccccc12)NC(=O)[C@@H](N)CCCNC(=N)N)C(N)=O	Candida albicans	broth microdilution	CGMCC 2.209, RPMI 1640-MOPS	48 h, 30 °C, with: ZnCl2 8 µM	–	MIC	8 µM (≈ 13.2 µg/mL)
CO/N=C(\C(=O)N[C@@H]1C(=O)N2C(C(=O)O)=C(CSC(=O)c3ccco3)CS[C@H]12)c1csc(N)n1	Staphylococcus aureus	–	CAAS-2019-CAAS-2019-02 clinical drug-resistant isolate, 25% plasma	–	–	MBC	8 µg/mL
Cn1cc(C2=C(c3ccc(Cl)cc3Cl)C(=O)NC2=O)c2ccccc21	Aspergillus fumigatus	–	–	20 µM	reference: untreated	metabolic activity	≥ 80%
Cn1cc(C2=C(c3cn(C4CCN(Cc5ccccn5)CC4)c4ccccc34)C(=O)NC2=O)c2ccccc21	murine hepatitis virus	viral replication, nanoluciferase reporter	DBT	1 µM, 10 h	reference: DMSO vehicle	inhibition	37%
C=C(CN(C(=O)c1c(C(F)F)nn(C)c1F)C1CC1)c1ccc(Cl)cc1Cl	Phytophthora capsici	–	–	1.56 mg/L	–	colony diameter	17 mm and 18 mm and 13 mm and 21 mm and 14 mm
CN1CCC(COc2cnc(-c3cccc(Cn4nc(-c5cccc(C#N)c5)ccc4=O)c3)nc2)CC1	murine hepatitis virus	viral replication, nanoluciferase reporter	DBT	1 µM, 10 h	reference: DMSO vehicle	inhibition	27%
COC(=O)C1=C(C)NC(C)=C(C(=O)OC(C)(C)CN(C)CCC(c2ccccc2)c2ccccc2)C1c1cccc([N+](=O)[O-])c1 (stereo not drawn)	Aspergillus fumigatus	Alamar blue	–	3.95 µg/mL, 48 h, with: caspofungin 0.2 µg/mL	–	metabolic activity	41.8% and 34.3%
CCCCCC/C=C\CCCCCCCCCC(=O)CP(=O)(O)O	Bacillus cereus	–	1056	–	–	MIC90	0.2 µg/mL (≈ 0.555 µM)
N=C(N)NCCC[C@H](NC(=O)CN)C(=O)N[C@@H](Cc1c[nH]c2ccccc12)C(=O)N[C@@H](CCCNC(=N)N)C(=O)N[C@@H](Cc1c[nH]c2ccccc12)C(=O)N[C@@H](Cc1c[nH]c2ccccc12)C(=O)N[C@@H](Cc1c[nH]c2ccccc12)C(=O)N[C@@H](CCCNC(=N)N)C(=O)N[C@@H](Cc1c[nH]c2ccccc12)C(=O)N[C@@H](CCCNC(=N)N)C(=O)N[C@@H](Cc1ccccc1)C(N)=O	Candida albicans	broth microdilution	14936, RPMI 1640-MOPS	48 h, 30 °C	–	MIC	8 µM (≈ 14.2 µg/mL)
CC[C@H](C)[C@H](NC(=O)[C@H](C)NC(=O)[C@H](CCCCN)NC(=O)[C@H](CC(C)C)NC(=O)[C@H](C)NC(=O)[C@@H](NC(=O)[C@H](Cc1c[nH]cn1)NC(=O)[C@H](CC(C)C)NC(=O)[C@@H](NC(=O)[C@@H](NC(=O)[C@H](CCCCN)NC(=O)[C@H](C)NC(=O)[C@H](C)NC(=O)[C@H](CO)NC(=O)[C@H](CCCCN)NC(=O)[C@H](Cc1ccccc1)NC(=O)[C@@H](NC(=O)[C@H](CCCCN)NC(=O)[C@H](CC(C)C)NC(=O)[C@H](Cc1ccccc1)NC(=O)[C@H](CO)NC(=O)[C@H](CCCCN)NC(=O)[C@H](Cc1c[nH]c2ccccc12)NC(=O)[C@H](CCCCN)NC(C)=O)[C@@H](C)O)[C@@H](C)O)C(C)C)[C@@H](C)O)C(=O)N[C@@H](CO)C(=O)N[C@@H](CO)C(N)=O	Pseudomonas aeruginosa	–	IPM-R	81 strains	–	MBC90	64 µg/mL (≈ 21.8 µM)
Nc1ncnc2c1ncn2[C@@H]1O[C@@H]2COP(=O)(O)O[C@H]3[C@@H](O)[C@H](n4cnc5c(=O)[nH]cnc54)O[C@@H]3COP(=O)(O)O[C@H]2[C@H]1O	West Nile virus	RNA sequencing Reactome analysis, item: DNA Repair (R-HSA-73894)	HFF-1	concentration not given, upregulated pathways, with: West Nile virus infection	reference: WNV-infected without compound	fold enrichment	2.67
Cn1c(=O)ccc2ccc(F)c(CCNC[C@H]3CN(c4cnc5c(n4)NC(=O)CO5)C(=O)O3)c21	Moraxella catarrhalis	–	–	–	–	MIC50	< 0.015 µg/mL
CCCCCCCCCCCc1c([N+](=O)[O-])oc2ccc3ccccc3c12	Enterobacter cloacae	REMA	–	–	–	MIC90	> 32 µg/mL
NC(=O)c1cnc(N[C@@H]2CCCC[C@@H]2N)nc1Nc1cccc(-n2nccn2)c1	murine hepatitis virus	viral replication, nanoluciferase reporter	DBT	1 µM, 10 h	reference: DMSO vehicle	inhibition	40%
COc1c([N+](=O)[O-])oc2ccc3ccccc3c12	Enterobacter cloacae	REMA	–	–	–	MIC90	> 32 µg/mL
Nc1ccn([C@@H]2O[C@H](CO)[C@@H](O)C2(F)F)c(=O)n1	human alphaherpesvirus 1	–	K26 GFP, 3D skin equivalent, submerged	–	reference: CC50 over IC50	selectivity index	> 52.6
Cc1cccc(-c2cnc3occ(-c4ccc(C(=O)O)c(C5CCCC5)c4)c3c2)c1	murine hepatitis virus	viral replication, nanoluciferase reporter	DBT	1 µM, 10 h	reference: DMSO vehicle	inhibition	15%
CCCC(CCC)C(=O)Nc1ccccc1O	Artemia franciscana	LC-MS/MS metabolomics, item: 1-aminocyclopropanecarboxylic acid	larvae	concentration not given, 24 h, LC10 concentration	reference: vehicle	log2 fold change	0.742
Cn1cnc2c(F)c(Nc3ccc(Br)cc3Cl)c(C(=O)NOCCO)cc21	Aspergillus fumigatus	–	–	20 µM	reference: untreated	metabolic activity	≥ 80%
CC1=C(C#N)C(c2ccc3c(c2)c(NC(=O)c2ccccc2C)nn3C)C(C#N)=C(C)N1	murine hepatitis virus	viral replication, nanoluciferase reporter	DBT	1 µM, 10 h	reference: DMSO vehicle	inhibition	-7%
CC[C@H](C=C[C@@H](C)[C@H]1CC[C@H]2[C@@H]3CCC4=CC(=O)CC[C@]4(C)[C@H]3CC[C@]12C)C(C)C	Leishmania mexicana	–	mouse C57BL/6 bone marrow-derived macrophages, intracellular amastigotes	concentration not given, 48 h	–	antileishmanial activity	inactive
CC[C@H](C)[C@H](NC(=O)[C@H](CCCNC(=N)N)NC(=O)[C@H](Cc1c[nH]c2ccccc12)NC(=O)[C@H](CCCNC(=N)N)NC(=O)[C@H](Cc1c[nH]c2ccccc12)NC(=O)[C@H](Cc1c[nH]c2ccccc12)NC(=O)[C@H](Cc1c[nH]c2ccccc12)NC(=O)[C@H](CCCNC(=N)N)NC(=O)[C@H](Cc1c[nH]c2ccccc12)NC(=O)[C@H](CCCNC(=N)N)NC(=O)CN)C(N)=O	Candida albicans	broth microdilution	CGMCC 2.209, RPMI 1640-MOPS	48 h, 30 °C, with: NH4Cl 6 µM	–	MIC	8 µM (≈ 13.9 µg/mL)

Repeated from above:
Structure (SMILES)	organism	test	test system	setting	scale	quantity	result
CC[C@H](C)[C@H](NC(=O)[C@H](CCCNC(=N)N)NC(=O)[C@H](Cc1c[nH]c2ccccc12)NC(=O)[C@H](CCCNC(=N)N)NC(=O)[C@H](Cc1c[nH]c2ccccc12)NC(=O)[C@H](Cc1c[nH]c2ccccc12)NC(=O)[C@H](Cc1c[nH]c2ccccc12)NC(=O)[C@H](CCCNC(=N)N)NC(=O)[C@H](Cc1c[nH]c2ccccc12)NC(=O)[C@H](CCCNC(=N)N)NC(=O)CN)C(N)=O	Candida albicans	broth microdilution	CGMCC 2.209, RPMI 1640-MOPS	48 h, 30 °C, with: NH4Cl 6 µM	–	MIC	8 µM (≈ 13.9 µg/mL)
Cc1cccc(-c2cnc3occ(-c4ccc(C(=O)O)c(C5CCCC5)c4)c3c2)c1	murine hepatitis virus	viral replication, nanoluciferase reporter	DBT	1 µM, 10 h	reference: DMSO vehicle	inhibition	15%
